Measurements of several laboratories.
Each line is one published result; not all experiments were run side by side. Numbers after ± are the reported error.

O=C1CCc2ccc(OCCCCN3CCN(c4cccc(Cl)c4Cl)CC3)cc2N1  cardiovascular symptom frequency (CYP2D6 poor metabolizers; concentration not given, genotype-based phenotype, long-acting oral or depot): 5.3%
FC(F)(F)c1ccc(CNc2ccc(Cc3c[nH]c4ncc(Cl)cc34)cn2)cn1  treatment-related adverse events (measured: Rash; patients with advanced solid tumours, all cohorts; oral, 1000 mg/day, any grade): 14%
CC1(C)S[C@@H]2[C@H](NC(=O)[C@H](N)c3ccc(O)cc3)C(=O)N2[C@H]1C(=O)O  heart rate (male Hartley guinea pigs, anaesthetized; intravenous, 10 mg/kg over 10 min, after infusion): 208 ± 0.2 beats/min
CC[C@H](C)[C@H](NC(=O)[C@H](Cc1ccccc1)NC(=O)[C@H](CCC(=O)O)NC(=O)[C@H](CCCCNC(=O)COCCOCCNC(=O)COCCOCCNC(=O)CC[C@H](NC(=O)CCCCCCCCCCCCCCCCC(=O)O)C(=O)O)NC(=O)[C@H](C)NC(=O)[C@H](C)NC(=O)[C@H](CCC(N)=O)NC(=O)CNC(=O)[C@H](CCC(=O)O)NC(=O)[C@H](CC(C)C)NC(=O)[C@H](Cc1ccc(O)cc1)NC(=O)[C@H](CO)NC(=O)[C@H](CO)NC(=O)[C@@H](NC(=O)[C@H](CC(=O)O)NC(=O)[C@H](CO)NC(=O)[C@@H](NC(=O)[C@H](Cc1ccccc1)NC(=O)[C@@H](NC(=O)CNC(=O)[C@H](CCC(=O)O)NC(=O)C(C)(C)NC(=O)[C@@H](N)Cc1cnc[nH]1)[C@@H](C)O)[C@@H](C)O)C(C)C)C(=O)N[C@@H](C)C(=O)N[C@@H](Cc1c[nH]c2ccccc12)C(=O)N[C@@H](CC(C)C)C(=O)N[C@H](C(=O)N[C@@H](CCCNC(=N)N)C(=O)NCC(=O)N[C@@H](CCCNC(=N)N)C(=O)NCC(=O)O)C(C)C  QT change from baseline (12-lead Holter ECG; healthy humans; subcutaneous, 1.5 mg once weekly, 42 h, steady state; reference: placebo): -24.6 ms
CNCc1ccc(-c2[nH]c3cc(F)cc4c3c2CCNC4=O)cc1  anaemia incidence (patients; oral, 600 mg twice daily, grade 1): 0%
Cc1noc(C)c1-c1cc(C(O)(c2ccccn2)c2ccccn2)c2nc(C3CC3)[nH]c2c1  Ctau (human patients, plasma; oral, 4 mg, cycle 1 day 8, monotherapy): 168 ng/mL
O=C(CCCCCCC(=O)Nc1ccc(CC[18F])cc1)NO  tissue uptake (athymic nu/nu male mice, LNCaP xenograft, muscle; intravenous, 2 h): 1.2 ± 0.6 %ID/g
Cc1ccc([C@@H]2O[C@H](CO)[C@@H](O)[C@H](O)[C@H]2O)cc1Cc1ccc(-c2ccc(F)cc2)s1  urinary phosphate excretion change (measured: inorganic phosphorus; Japanese type 2 diabetes patients; 400 mg, day 5, 24 h urine collection; reference: baseline): 167 mg
O=C(CCCN1CCC(O)(c2ccc(Cl)cc2)CC1)c1ccc(F)cc1  heart rate (male Hartley guinea pigs, anaesthetized; intravenous, 1 mg/kg group, baseline before infusion): 226 ± 0.4 beats/min
CO[C@H]1/C=C/O[C@@]2(C)Oc3c(C)c(O)c4c(O)c(c(/C=N/N5CCN(C)CC5)c(O)c4c3C2=O)NC(=O)/C(C)=C\C=C\[C@H](C)[C@H](O)[C@@H](C)[C@@H](O)[C@@H](C)[C@H](OC(C)=O)[C@@H]1C  incidence of any adverse event (healthy human volunteers; oral, 600 mg, itraconazole cohort, together with: gepotidacin 1500 mg): 24%
C[C@@H](Nc1cc(F)cc(F)c1)c1cc(C(=O)N(C)C)cc2c(=O)cc(N3CCOCC3)oc12  AUC(tau) (human; oral, 120 mg twice daily, pooled, geometric LSM, together with: abiraterone 1000 mg): 4410 ng·h/mL
COc1ccc(C=CC(=O)O)cc1O[C@@H]1O[C@H](C(=O)O)[C@@H](O)[C@H](O)[C@H]1O  CSF concentration (human CSF; concentration not given, mean): not detected
CCOc1c([C@H](C)n2nc(C)c3c(N)ncnc32)cc(Cl)c(F)c1[C@@H]1CNC(=O)C1  observations QTcF >480 ≤500 ms (ECG; previously treated B-cell malignancy patients; oral, 15 mg once daily, baseline QTcF ≤450 ms): 0%
O=C(COc1ccc(Cl)cc1)NC12CC(c3nnc([C@H]4C[C@@H](OC(F)(F)F)C4)o3)(C1)C2  treatment-emergent adverse events (drug-related; healthy human, both sexes; oral, dose not given, 14 days, multiple ascending dose, all doses): 85.3%
O=C(Nc1nc2cccc(-c3ccc(CN4CCS(=O)(=O)CC4)cc3)n2n1)C1CC1  treatment-emergent adverse events (measured: musculoskeletal disorders; human rheumatoid arthritis patients; oral, 30 mg once daily, 4 weeks, regardless of relatedness): 0%
CN(CCC(=O)O)C(=O)c1ccc2c(c1)CC[C@@H]1[C@@H]2CC[C@]2(C)C(c3cncc(F)c3)=CC[C@@H]12  indirect bilirubin change (premenopausal women, endometriosis pain, serum; 60 mg twice daily, visit 4, median; reference: baseline): 0.38 mg/dL
CCN1/C(=C/C(C)=O)Sc2ccc(F)cc21  diastolic blood pressure change (cynomolgus monkey; oral, 30 mg/kg, 0.5 h post-dose; reference: pre-dose): 99 ± 5.4%
Cn1cc(-c2ccc(-c3cncc(Cl)c3N3CCC4(CCNC4=O)CC3)cc2)cn1  log2 fold change (COLO 205; gene expression, microarray, measured: EDN1 mRNA; concentration not given, 6 h; reference: untreated cells): 1.53
NC1(C(=O)N[C@@H](CCO)c2ccc(Cl)cc2)CCN(c2nc[nH]c3nccc2-3)CC1  incidence of Dysgeusia (metastatic CRPC patients; 320 mg b.i.d., grade 3 to 4, treatment-related, together with: enzalutamide 160 mg daily): 0%
CC(C)n1c(Nc2cccnc2)nc2cnc(Nc3ccc(N4CCN(C)CC4)cc3)nc21  incidence of AST increased TEAE (healthy male humans; oral, dose not given, drug interaction study, all arms): 11.9%
COc1cc(C(=O)O)ccc1O  CSF concentration (human CSF; concentration not given, mean): not detected
Cc1cc(OCCOCCC(F)(F)P(=O)(O)O)ccc1CCc1cnc2c(N)nc3cc(CCC(=O)O)ccc3c2c1  AUC(tau) (human, serum; intratumoral, 200 µg every 2 weeks, cycle 2 day 15): 20.1 ng·h/mL
CNC(=O)c1ccc(-c2cnc3ncc(Cc4ccc5ncccc5c4)n3n2)cc1F  peripheral edema incidence (all grades) (CTCAE v4.0, any causality; human gastric cancer patients; oral, 600 mg twice daily, expansion cohort at RP2D): 44%
C=CC(=O)Nc1cc(Nc2nccc(-c3cn(C)c4ccccc34)n2)c(OC)cc1N(C)CCN(C)C  recovery (storage stability; human dried blood spot; 2 h, -80 °C, LLOQ level): 82.4%
CCCOc1ccc(NC(=O)CN2CCN(C)CC2)cc1-c1nc(CC)c(CC)c(=O)[nH]1  hot flash incidence (healthy Chinese men; 10 mg, together with: alcohol 0.5 g/kg): 13.3%
CC/C(=C(\c1ccccc1)c1ccc(OCCN(C)C)cc1)c1ccccc1  heart rate (male Hartley guinea pigs, anaesthetized; intravenous, 30 mg/kg over 10 min, after infusion): 192 ± 0.9 beats/min
O=C1C[C@@H](c2ccc(O[C@@H]3O[C@H](C(=O)O)[C@@H](O)[C@H](O)[C@H]3O)cc2)Oc2cc(O)cc(O)c21  CSF concentration (human CSF; concentration not given, mean): not detected
Cc1cc(-c2nccc3c2ccn3CC(=O)Nc2ccc(-c3cnccn3)cn2)ccn1  respiratory thoracic mediastinal TEAEs (healthy human volunteers; oral, 20 mg single dose, single ascending dose): 0%
[18F]c1ccc(-c2ccc3c(c2)[nH]c2ccncc23)cn1  uptake (ex vivo biodistribution; APP/PS1 Alzheimer mice, gut; intravenous, 30 min): 1.73 ± 0.685 SUV
CNC(=O)c1ccc(-c2cnc3ncc(Cc4ccc5ncccc5c4)n3n2)cc1F  AST increased patients (Japanese patients; oral, 400 mg, grade 3/4): 2%
O=C(N[C@H](Cc1c[nH]c2ccccc12)C(=O)Nc1ccncc1)c1ccc(-c2ccc(F)c(Cl)c2)cc1F  concentration (Swiss Webster mouse, female, lung; oral, 50 mg/kg, 8 h, 20% HPβCD vehicle): 15.5 µM
CC(C)(C(=O)N1CCOc2c(C#N)cncc2C1)C(F)F  subjects with TEAE (measured: tandem gait test abnormal; human, both sexes; oral, 10 mg once daily, 14 days, multiple ascending dose): 0%
CC1(C)OB(/C=C/COc2ccc(OCc3ccccc3)cc2)OC1(C)C  yield (oxidative cleavage releasing alcohol, 1H NMR; pH 7.4, together with: H2O2): 98%
COc1ccc2[nH]c([S@+]([O-])Cc3ncc(CO)c(OC)c3C)nc2c1  AUC(0-8 h) (human, dried plasma spots; 5 mg racemic omeprazole, together with: fluvoxamine and voriconazole): 0.153 µM·h
N#Cc1ccc2c(c1)[C@H]1CCCN(C(=O)c3ccc4[nH]cnc4c3)[C@H]1C2  DHEA-S level (human, male; 160 mg, day 7): 8.2 µmol/L
CNc1ccc(-c2nc3ccc(O)cc3s2)cc1 [carbon-11 labelled]  uptake (ex vivo biodistribution; APP/PS1 Alzheimer mice, caudate nucleus; intravenous, 30 min): 0.158 ± 0.09 SUV
CNC(=O)c1cc(Oc2ccc(NC(=O)Nc3cc(C(C)(C)C)nn3-c3ccc4ncccc4c3)c(F)c2)ccn1  patients with any AE of special interest (measured: worst grade 3; human; oral, dose not given, cycles 1 and 2, Low AUC(0-4 h) subgroup): 7%
Cc1cc(-c2nnc(N)nc2-c2ccc(F)cc2)cc(Cl)n1  incidence of treatment-related AE (measured: decreased appetite, any grade; male IO-naive mCRPC patients; oral, dose not given): 13.8%
COc1cc2c3cc1Oc1c(OC)c(OC)cc4c1[C@@H](Cc1ccc(O)c(c1)Oc1ccc(cc1)C[C@@H]3N(C)CC2)N(C)CC4  remaining compound (mouse plasma, K3EDTA; 0 h, on ice): 100%
CCO[C@H]1CCN(Cc2c(OC)cc(C)c3[nH]ccc23)[C@H](c2ccc(C(=O)O)cc2)C1  incidence of abdominal pain (PNH patients, active haemolysis; oral, 100 mg, 8 weeks, treatment): 0%
CCCCOC(=O)N1CCN(C(=O)[C@H](CP(=O)(O)O)NC(=O)c2cc(N3CC[C@H](OC)C3)nc(-c3ccccc3)n2)CC1  change from baseline (measured: haematocrit; human, blood; 16 mg, 24 h post-dose): 0 ± 0.021 L/L
CO[C@H]1C[C@@H]2CC[C@@H](C)[C@@](O)(O2)C(=O)C(=O)N2CCCC[C@H]2C(=O)O[C@H]([C@H](C)C[C@@H]2CC[C@@H](OC(=O)NCCOCCOCCOCCOCCOCCOCCOCCOCCC(=O)N3CCc4cc(Cn5nc(-c6ccc7oc(N)nc7c6)c6c(N)ncnc65)ccc4C3)[C@H](OC)C2)C[C@@H](O)[C@H](C)/C=C(\C)[C@@H](O)[C@@H](OC)C(=O)[C@H](C)C[C@H](C)/C=C/C=C/C=C/1C  Tmax (human patients, plasma; intravenous, 1.6 mg, cycle 1 day 15, weekly dosing): 1 h
C=CC(=O)NC1CCN(c2ncc3ncnc(Nc4ccc(Oc5ccc6c(c5)ncn6C)c(C)c4)c3n2)CC1  adverse events incidence (measured: blood and lymphatic disorders (SOC); human male; oral, dose not given, CTCAE on-treatment AEs): 0%
O=C(O)CCC(=O)O.[2H]C([2H])([2H])Oc1cc(C)c2[nH]ccc2c1CN1CC[C@@H](C2CC2)C[C@H]1c1ccc(C(=O)O)cc1  AUC(0-tau) (human, plasma; 50 mg twice daily, day 10, multiple ascending dose, geometric mean): 24200 ng·h/mL
C[C@H]1C=C(Cc2ccccc2)C(=O)O1  KOC (FOCUS PEARL groundwater modelling; soil; geometric mean input): 68 mL/g
